Values quoted from earlier work that unrelated publications cite.
± gives the spread as reported. ≈ marks a conversion by molar mass, not a printed value.

O=S(=O)(O)O.c1csc(CNc2cc[nH]n2)c1.c1csc(CNc2cc[nH]n2)c1  comet assay result (Hsd:ICR (CD-1) mice, both sexes, liver; oral gavage, males 125, 250, 500 mg/kg/day, 3 consecutive days, females 250, 500, 1000 mg/kg/day): negative
C=C[C@@H]1C[C@]1(NC(=O)[C@@H]1C[C@@H](Oc2nccc3cc(OC)ccc23)CN1C(=O)[C@@H](NC(=O)OC(C)(C)C)C(C)(C)C)C(=O)NS(=O)(=O)C1CC1  tissue concentration (rat, liver; oral, 20 mg/kg, 24 h): 730 nM
Nc1nc2ncc(CNc3ccc(C(=O)N[C@@H](CCC(=O)O)C(=O)O)cc3)nc2c(=O)[nH]1  Cmax (plasma; concentration not given): 3400 nM
CC[C@@H](C)[C@@H](NC(=O)[C@@H](CCCCN)NC(=O)[C@@H](CCCCN)NC(=O)[C@@H](Cc1ccccc1)NC(=O)[C@@H](CC(C)C)NC(=O)[C@@H](CCCCN)NC(=O)[C@H](N)CCCCN)C(=O)N[C@H](CC(C)C)C(=O)N[C@@H](CCCCN)C(=O)N[C@@H](Cc1ccc(O)cc1)C(=O)N[C@@H](CC(C)C)C(N)=O  hemolysis (horse erythrocytes 5 % v/v; 150 µM): 0%
Oc1ccc(/C=C/c2cc(O)cc(O)c2)cc1  Cmax (plasma; concentration not given): 180 nM
CCN(CC)CCNC(=O)c1c(C)[nH]c(/C=C2\C(=O)Nc3ccc(F)cc32)c1C  patients with thrombocytopenia (patients; dose not given, all grades): 65%
NC(=O)N1c2ccccc2C[C@H](O)c2ccccc21  plasma concentration (mouse, latrunculin A seizures; po, 100 mg/kg of eslicarbazepine acetate, 60 min): 60900 nM
CC(C)C[C@H](NC(=O)[C@H](Cc1c[nH]c2ccccc12)NC(=O)[C@H](CCCCN)NC(=O)[C@@H](NC(=O)[C@H](Cc1ccccc1)NC(=O)[C@H](CCC(=O)O)NC(=O)[C@H](CCC(=O)O)NC(=O)[C@H](C)NC(=O)[C@H](CCCNC(=N)N)NC(=O)[C@H](C)NC(=O)C(C)(C)NC(=O)[C@H](CC(=O)O)NC(=O)[C@H](CC(C)C)NC(=O)[C@H](Cc1ccc(O)cc1)NC(=O)[C@H](CCCCN)NC(=O)[C@H](CO)NC(=O)[C@H](Cc1ccc(O)cc1)NC(=O)[C@H](CC(=O)O)NC(=O)[C@H](CO)NC(=O)[C@@H](NC(=O)[C@H](Cc1ccccc1)NC(=O)[C@@H](NC(=O)CNC(=O)[C@H](CCC(N)=O)NC(=O)[C@H](CO)NC(=O)[C@@H](N)Cc1c[nH]cn1)[C@@H](C)O)[C@@H](C)O)C(C)C)C(=O)N[C@@H](CCC(=O)O)C(=O)N[C@@H](CO)C(=O)N[C@H](C(=O)O)[C@@H](C)O  in-use stability (aqueous solution; body temperature): ≥ 7 days
Nc1c(Br)cc(Br)cc1CN[C@H]1CC[C@H](O)CC1  Cmax (plasma; concentration not given): 480 nM
CC[C@H](C)CCCCC(=O)N[C@@H](CCN)C(=O)N[C@H](C(=O)N[C@@H](CCN)C(=O)N[C@H]1CCNC(=O)[C@H]([C@@H](C)O)NC(=O)[C@H](CCN)NC(=O)[C@H](CCN)NC(=O)[C@H](CC(C)C)NC(=O)[C@@H](Cc2ccccc2)NC(=O)[C@H](CCN)NC1=O)[C@@H](C)O  volume of distribution (critically ill human patients; intravenous, dose not given, population PK model): 34.4 L
CCCS(=O)(=O)Nc1ccc(F)c(C(=O)c2c[nH]c3ncc(-c4ccc(Cl)cc4)cc23)c1F  parent drug share of radioactivity (human patients, serum; dose not given, up to 48 h, radiolabelled dose): 95%
CCOc1cc([C@@H](CS(C)(=O)=O)N2C(=O)c3cccc(NC(C)=O)c3C2=O)ccc1OC  exposure increase (human; dose not given, together with: ketoconazole): 36%
CCOc1ccc(Cc2cc([C@]34OC[C@](CO)(O3)[C@@H](O)[C@H](O)[C@H]4O)ccc2Cl)cc1  absolute bioavailability (human): ~100%
O=C1CC(c2ccc(O)cc2)Oc2cc(O)cc(O)c21 (stereo not drawn)  serum AST, ALT, LDH, CK, protein, albumin (Wistar rat, female; oral gavage, 50 mg/kg/day, 4 weeks): no effect
CC(CN(C)C)CN1c2ccccc2CCc2ccccc21 (stereo not drawn)  logP: 4.2
CC[C@H](C)C(=O)O[C@H]1C[C@@H](C)C=C2C=C[C@H](C)[C@H](CC[C@@H]3C[C@@H](O)CC(=O)O3)[C@H]21  Cmax (plasma; concentration not given): 10 nM
O=c1n(CCCN2CCN(c3cccc(Cl)c3)CC2)nc2ccccn12  QTcB prolongation (human; oral, 90 mg, from 30 min): > 20 ms
Nc1nc2c(ncn2[C@H]2C[C@@H]3OP(=O)(O)OC[C@H]3O2)c(=O)[nH]1  log Kw (methanol/water): 0.66
C#Cc1cccc(Nc2ncnc3cc(OCCOC)c(OCCOC)cc23)c1  Cmin (refers to: parent compound; human patients, plasma; oral, 150 mg once daily, day 1): 385 ± 213 ng/mL
Cc1ccccc1-c1cc(N2CCN(C)CC2)ncc1N(C)C(=O)C(C)(C)c1cc(C(F)(F)F)cc(C(F)(F)F)c1  CL/F (healthy volunteers, plasma; oral, dose not given, netupitant-palonosetron alone, rifampicin study): 19.9 L/h
Cc1nc2cccc(OCC(C)(C)C(=O)NC(C)C)c2c(N)c1C(=O)O  metabolism (phase I biotransformation; human; 60 min; baseline: compound): ≤ 0.1%
O=C(Nc1ccc(OC(F)(F)Cl)cc1)c1cnc(N2CC[C@@H](O)C2)c(-c2ccn[nH]2)c1  discontinuation for adverse events (human, CML-CP with T315I; 200 mg twice daily, median 2 years): 8.3%
COc1ccnc(C[S+]([O-])c2nc3ccc(OC(F)F)cc3[nH]2)c1OC (stereo not drawn)  Tmax (human, nonobese children; age 12-17 y, historical; median): 2 h
CC[C@H](C)[C@H](NC(=O)[C@H](CCCCN)NC(=O)[C@H](CCCCN)NC(=O)[C@H](Cc1ccccc1)NC(=O)[C@H](CC(C)C)NC(=O)[C@H](CCCCN)NC(=O)[C@@H](N)CCCCN)C(=O)N[C@@H](CC(C)C)C(=O)N[C@@H](CCCCN)C(=O)N[C@@H](Cc1ccc(O)cc1)C(=O)N[C@@H](CC(C)C)C(=O)N[C@@H](C)C(=O)NCC(=O)N1CCC[C@H]1C(=O)N[C@@H](C)C(=O)N[C@@H](CCCCN)C(=O)N[C@@H](Cc1ccccc1)C(=O)N[C@@H](CC(C)C)C(=O)N[C@@H](Cc1c[nH]cn1)C(=O)N[C@@H](CO)C(=O)N[C@@H](C)C(=O)N[C@@H](CCCCN)C(=O)O  hemolysis (horse erythrocytes 5 % v/v; 150 µM): 0 ± 0.5%
C[C@@H]1CCO[C@H]2Cn3cc(C(=O)NCc4ccc(F)cc4F)c(=O)c(O)c3C(=O)N12  trough concentration ratio (Japanese HIV patients; dose not given; baseline: UGT1A1*6 homozygous over wild type): ~1.7 fold
CC(C)(C)NC(=O)[C@@H]1C[C@@H]2CCCC[C@@H]2CN1C[C@@H](O)[C@H](Cc1ccccc1)NC(=O)[C@H](CC(N)=O)NC(=O)c1ccc2ccccc2n1  Cmax (plasma; concentration not given): 370 nM
CC(C)c1c(C(=O)Nc2ccccc2)c(-c2ccccc2)c(-c2ccc(F)cc2)n1CC[C@@H]1C[C@@H](O)CC(=O)O1  exposure ratio (patients with vs without statin-induced myopathy; dose not given; baseline: patients without myopathy history): 2.4 fold
VGGVVIA  solubility (filtration; peptide, sodium phosphate buffer; pH 7.4): 134 ± 19 µM
CN(C)CCC=C1c2ccccc2CCc2ccccc21  maximum whole-body concentration (juvenile Chinook salmon, whole body wet weight; concentration not given, field-collected): 0.68 ng/g
CN[C@H]1CC[C@@H](c2ccc(Cl)c(Cl)c2)c2ccccc21  mean concentration ratio (human; baseline: patients over 65 years over younger): 1.3 fold
CO[C@H]1C[C@@H]2CC[C@@H](C)[C@@](O)(O2)C(=O)C(=O)N2CCCC[C@H]2C(=O)O[C@H]([C@H](C)C[C@@H]2CC[C@@H](OCCO)[C@H](OC)C2)CC(=O)[C@H](C)/C=C(\C)[C@@H](O)[C@@H](OC)C(=O)[C@H](C)C[C@H](C)/C=C/C=C/C=C/1C  rosuvastatin Cmax (human transplant recipients; 2.5 mg/day, one month co-treatment; baseline: healthy volunteers, literature): ~2.5 fold
C#CCN(C)Cc1ccccc1  Cmax (plasma; concentration not given): 300 nM
O=C(O)CNC(=O)c1ccccc1[131I]  percent injected dose (normal rat, spleen; 60 min, together with: co-injected 99mTc-1): 0 %ID
COc1cc(Nc2ncc(F)c(Nc3ccc4c(n3)N(COP(=O)(O)O)C(=O)C(C)(C)O4)n2)cc(OC)c1OC  systolic blood pressure increase (rheumatoid arthritis patients; dose not given, month 1; baseline: baseline): ~3 mmHg
Cc1cn([C@H]2C=C[C@@H](CO)O2)c(=O)[nH]c1=O  logP (octanol-water): -0.8
Nc1nc(NC2CC2)c2ncn([C@H]3C=C[C@@H](CO)C3)c2n1  median Tmax (healthy, mostly White or Black; 600 mg, single dose, fasted, together with: dolutegravir 50 mg, lamivudine 300 mg): 2 h
CC[C@H](C)[C@H](N)C(=O)NCC(=O)N[C@@H](CC(C)C)C(=O)N[C@@H](CCSC)C(=O)N[C@H](C(=O)NCC(=O)NCC(=O)N[C@H](C(=O)N[C@H](C(=O)N[C@H](C(=O)N[C@@H](C)C(=O)O)[C@@H](C)CC)C(C)C)C(C)C)C(C)C  solubility (filtration; sodium phosphate buffer; pH 7.4): 54 ± 24 µM (≈ 55.5 µg/mL)
CNCc1ccc(-c2[nH]c3cc(F)cc4c3c2CCNC4=O)cc1  patients with ALT or AST increase (patients; 600 mg twice daily, grade 3 or higher, single agent): 11%
COc1cc(/C=C/c2ccc(O)cc2)cc(OC)c1  oral bioavailability (rat; 2-hydroxypropyl-β-cyclodextrin solution): ~60%
CNC(=C[N+](=O)[O-])NCCSCc1ccc(CN(C)C)o1  Cmax (plasma; concentration not given): 3990 nM
O=S(=O)(O)CNc1nc(NCS(=O)(=O)O)nc(-c2ccccc2)n1  pKa (acid side arm): ~-2
O=C1c2cccc3c2[C@H](CCC3)CN1[C@@H]1CN2CCC1CC2  AUC(0-inf) (healthy volunteers; oral, 0.75 mg single dose, mean): 70.8 ng ⋅ h/mL
CC(=O)Nc1ccc(O)cc1  Cmax (plasma; concentration not given): 130000 nM
CCc1c(C#N)c(SC(C(N)=O)c2ccccc2)nc(N(C)C)c1C#N (stereo not drawn)  tolerability (transgenic sickle cell disease mice; po, dose not given): not toxic
CN(C)CCC(c1ccc(Cl)cc1)c1ccccn1 (stereo not drawn)  log brain permeability-surface product (rat; together with: cyclosporin A): -1.65 mL/g/s
CN1CCN(c2ccc3nc(-c4c(N)c5c(F)cccc5[nH]c4=O)[nH]c3c2)CC1  AUC(0-t) (human; oral, 500 mg once daily, 24 h, day 1): 3730 ± 2120 ng·h/mL
C[C@H]1c2cccc(O)c2C(=O)C2=C(O)[C@]3(O)C(=O)C(C(N)=O)=C(O)[C@@H](N(C)C)[C@@H]3[C@@H](O)[C@@H]21  aqueous solubility (water; hydrate): 0.26 log mg/mL
CC(C)C[C@H](NC(=O)[C@H](Cc1ccccc1)NC(=O)c1cnccn1)B(O)O  grade 3/4 neutropenia incidence (relapsed or refractory multiple myeloma patients; dose not given, single agent, phase III): 14.5%

Excerpt of the above:
CC(C)(C)NC(=O)[C@@H]1C[C@@H]2CCCC[C@@H]2CN1C[C@@H](O)[C@H](Cc1ccccc1)NC(=O)[C@H](CC(N)=O)NC(=O)c1ccc2ccccc2n1  Cmax (plasma; concentration not given): 370 nM
CC(C)c1c(C(=O)Nc2ccccc2)c(-c2ccccc2)c(-c2ccc(F)cc2)n1CC[C@@H]1C[C@@H](O)CC(=O)O1  exposure ratio (patients with vs without statin-induced myopathy; dose not given; baseline: patients without myopathy history): 2.4 fold
VGGVVIA  solubility (filtration; peptide, sodium phosphate buffer; pH 7.4): 134 ± 19 µM
CN(C)CCC=C1c2ccccc2CCc2ccccc21  maximum whole-body concentration (juvenile Chinook salmon, whole body wet weight; concentration not given, field-collected): 0.68 ng/g
CN[C@H]1CC[C@@H](c2ccc(Cl)c(Cl)c2)c2ccccc21  mean concentration ratio (human; baseline: patients over 65 years over younger): 1.3 fold
